Results of several laboratories.
Each line is one published result; not all experiments were run side by side. ± marks the error that the study gave. Converted amounts (≈) assume the structure as drawn.

Compound	organism	test	test system	conditions	how to read	endpoint	value
Fc1ccc2c(c1)c1nc3ccc(Br)cc3c-1cn2Cc1cn(-c2ccccc2I)nn1	Giardia duodenalis trophozoites	UHPLC-Q-TOF-MS, item: TG(20:4/20:5/20:5) isomer 3	–	IC50, 0.1413 h	baseline: 0.25% DMSO	fold change	9.4
CC(C)C[C@@H]1NC(=O)[C@H](CCCCN)NC(=O)[C@H](C(C)C)NC(=O)[C@H](CCCCN)NC(=O)[C@@H]2CCCN2C(=O)[C@@H](Cc2ccc(O)cc2)NC(=O)[C@H](CCCCN)NC(=O)[C@H](CCCCN)NC(=O)[C@H](C(C)C)NC(=O)[C@@H]2CCCN2C(=O)[C@@H](Cc2ccc(O)cc2)NC1=O	fungi	–	–	24 h, 2 strains	–	MIC geometric mean	181 µg/mL (≈ 135 µM)
C=C(C)[C@@H]1CC[C@]2(C(=O)n3ccnc3)CC[C@]3(C)[C@H](CC[C@@H]4[C@@]5(C)CCCNC(C)(C)[C@@H]5CC[C@]43C)[C@@H]12	Human papillomavirus 11	viral replication, luciferase reporter	C-33 A	–	–	EC90	> 1200 nM
CN[C@H](CC(C)C)C(=O)N[C@H]1C(=O)N[C@@H](CC(N)=O)C(=O)N[C@H]2C(=O)N[C@H]3C(=O)N[C@H](C(=O)N[C@H](C(=O)O)c4cc(O)cc(O)c4-c4cc3ccc4O)[C@H](O)c3ccc(c(Cl)c3)Oc3cc2cc(c3O[C@@H]2O[C@H](CO)[C@@H](O)[C@H](O)[C@H]2O[C@H]2C[C@](C)(NCc3ccc(C(=O)OCCCCCCN(Cc4ccccn4)Cc4ccccn4)cc3)[C@H](O)[C@H](C)O2)Oc2ccc(cc2Cl)[C@H]1O	Bacillus subtilis	growth retardation	168	concentration not given	–	physiologically effective concentration	0.75 × MIC
CC(C)C[C@@H]1NC(=S)NC1=O	Trypanosoma cruzi trypomastigote	–	Y	–	baseline: LLC-MK2 CC50 over IC50	selectivity ratio	4.5
COc1ccc(-c2nc(-c3ccccc3OC)[nH]c2-c2ccc(OC)cc2)cc1	Schistosoma mansoni	–	adult male worms	25 µM	–	worm killing	0%
CCNC1=C(Cl)C(=O)c2cc3c(cc2C1=O)CCCC3(C)C	Leishmania infantum	–	intracellular amastigotes, ex vivo mouse splenic explants	–	baseline: HepG2 CC50 over amastigote EC50	selectivity index	> 3
CC[C@@H](C)[C@@H](NC(=O)[C@@H](C)NC(=O)[C@@H](CCCCN)NC(=O)[C@@H](CC(C)C)NC(=O)[C@@H](C)NC(=O)[C@H](NC(=O)[C@@H](Cc1c[nH]cn1)NC(=O)[C@@H](CC(C)C)NC(=O)[C@H](NC(=O)[C@H](NC(=O)[C@@H](CCCCN)NC(=O)[C@H](NC(=O)[C@@H](C)NC(=O)[C@@H](CO)NC(=O)[C@@H](CCCCN)NC(=O)[C@@H](Cc1ccccc1)NC(=O)[C@H](NC(=O)[C@@H](CCCCN)NC(=O)[C@@H](CC(C)C)NC(=O)[C@@H](Cc1ccccc1)NC(=O)[C@@H](CO)NC(=O)[C@@H](CCCCN)NC(=O)[C@@H](Cc1c[nH]c2ccccc12)NC(=O)[C@@H](CCCCN)NC(C)=O)[C@H](C)O)C(C)C)[C@H](C)O)C(C)C)[C@H](C)O)C(=O)N[C@H](CO)C(=O)N[C@H](CO)C(N)=O	Acinetobacter baumannii	–	985, Mueller-Hinton broth	24 h, 37 °C	–	MIC	0.7 µM
CC1=C(C)C(Oc2c(F)cc3c(C)cc(=O)oc3c2F)OC1=O (racemic)	Pisum sativum	–	rms1 mutant	applied to axillary bud, concentration not given	–	shoot branching inhibition	active
CCc1c(C)[nH]c(C=NC23CC4CC(CC(C4)C2)C3)c1C	Plasmodium yoelii	–	Kenya strain MRA-428, mice	oral, 25 mg/kg daily for 4 days, day 5	–	parasitaemia suppression	17%
C[C@@H](c1ccn(Cc2cccc(F)c2F)n1)[C@](O)(Cn1cnnn1)c1ccc(F)cc1F	Aspergillus fumigatus	growth, broth microdilution	7544	48 h, 35 °C, ≥50% inhibition	–	MIC	> 64 µg/mL
O=S(=O)(c1ccccc1)N(CCc1nnc(S)o1)c1ccccc1	Aspergillus niger	cup plate method	–	100 µg/mL	baseline: fluconazole	relative inhibition	38.2%
C[C@H]1[C@H](C)CC[C@]2(CO)CC[C@]3(C)C(=CC[C@@H]4[C@@]5(C)CCCNC(C)(C)[C@@H]5CC[C@]43C)[C@H]12	Human papillomavirus 11	viral replication, luciferase reporter	C-33 A	–	–	EC90	> 1200 nM
NC(=O)CCCn1c2ccc([N+](=O)[O-])cc2c(=O)n1Cc1ccccc1	Leishmania amazonensis	parasite growth, imaging	mouse Peritoneal macrophage	48 h, intracellular, amastigote	–	IC50	4200 nM
CCOC1=CC(=O)c2cc3c(cc2C1=O)CCCC3(C)C	Leishmania infantum	–	intracellular amastigotes, ex vivo mouse splenic explants	–	baseline: HepG2 CC50 over amastigote EC50	selectivity index	13
C[C@@H](c1ccn(Cc2cc(F)c(F)c(F)c2)n1)[C@](O)(Cn1cnnn1)c1ccc(F)cc1F	Aspergillus fumigatus	growth, broth microdilution	7544	48 h, 35 °C, ≥50% inhibition	–	MIC	> 64 µg/mL
Cc1ncc([N+](=O)[O-])n1CCOCc1nnc(SCC(=O)c2ccc(O)cc2)o1	Serratia marcescens	–	DMSO	60 µg/mL, 24 h, 37 °C	–	inhibition zone diameter	15 to 20 mm
CC1=CC(c2ccc[nH]2)=NC1=CNC12CC3CC(CC(C3)C1)C2	Plasmodium yoelii	–	Kenya strain MRA-428, mice	oral, day 5, dosed 4 days	–	ED50	20 mg/kg/day
Brc1ccc(-c2c[nH]c(-c3ccccn3)n2)cc1	Schistosoma mansoni	–	adult male worms	50 µM	–	worm killing	88%
CCNC1=CC(=O)c2cc3c(cc2C1=O)CCCC3(C)C	Leishmania infantum	–	promastigotes	–	baseline: HepG2 CC50 over promastigote EC50	selectivity index	7.5

Compound	organism	test	test system	conditions	how to read	endpoint	value
O=C1CC(c2ccc(O)cc2)Oc2cc(O)cc([O][Ga+][O]c3cc(O)cc4c3C(=O)CC(c3ccc(O)cc3)O4)c21 (stereo not drawn)	Pseudomonas aeruginosa	RNA-seq	PAO1	4 µM, 4 h	–	number of downregulated genes	778
Cc1ncc([N+](=O)[O-])n1CCOCc1nnc(SCC(=O)c2ccc(F)cc2)o1	Serratia marcescens	–	DMSO	60 µg/mL, 24 h, 37 °C	–	inhibition zone diameter	10 to 15 mm
CCn1ccc([C@H](C)[C@](O)(Cn2cnnn2)c2ccc(F)cc2F)n1	Aspergillus fumigatus	growth, broth microdilution	7544	48 h, 35 °C, ≥50% inhibition	–	MIC	> 64 µg/mL
COc1ccc(-n2c(=O)c(C(=O)C3C(=O)CCCC3=O)nc3c(C)cccc32)cc1	Schoenoplectus juncoides	herbicidal activity, paddy pot test, visual rating	–	28 days	–	ED90	25 g a.i./10 a
O=[N+]([O-])c1ccc(/C=N/N=C/c2ccc([N+](=O)[O-])s2)cc1	Trypanosoma equiperdum	parasite growth, CellTiter-Glo	IVM-t1 bloodstream form	72 h	–	IC50	1010 ± 500 nM
C[C@@H](c1ccn(Cc2ccc(F)c(Cl)c2)n1)[C@](O)(Cn1cnnn1)c1ccc(F)cc1F	Aspergillus fumigatus	growth, broth microdilution	7544	48 h, 35 °C, ≥50% inhibition	–	MIC	> 64 µg/mL
C/C(=C\c1ccco1)[N+](=O)[O-]	Leishmania amazonensis	motility arrest	promastigotes	72 h, 26 °C	–	minimal parasiticidal concentration	22.8 ± 0.9 µM
CC(C)C[C@@H]1NC(=O)[C@H](CCCCN)NC(=O)[C@H](C(C)C)NC(=O)[C@@H]2CCCN2C(=O)[C@@H](Cc2ccc(O)cc2)NC(=O)[C@H](CC(C)C)NC(=O)[C@H](CCCCN)NC(=O)[C@H](C(C)C)NC(=O)[C@H](CCCCN)NC(=O)[C@H](CC(C)C)NC(=O)[C@@H]2CCCN2C(=O)[C@@H](Cc2ccc(O)cc2)NC(=O)[C@H](C(C)C)NC(=O)[C@H](CCCCN)NC1=O	fungi	–	–	24 h, 2 strains	–	MIC geometric mean	11.3 µg/mL (≈ 6.77 µM)
COC1C=COC2(C)Oc3c(C)c(O)c4c(c3C2=O)C2=NC3(CCN(CC(C)C)CC3)NC2=C(NC(=O)C(C)=CC=CC(C)C(O)C(C)C(O)C(C)C(OC(=O)Nc2cnccn2)C1C)C4=O (stereo not drawn)	Mycobacteroides abscessus	–	ATCC 19977	1-log kill, replicating cultures	–	MBC	0.05 µM (≈ 0.0463 µg/mL)
COC1=CC(c2ccc[nH]2)=NC1=Cc1[nH]c(Cc2ccc(Cl)cc2)cc1Cc1ccc(Cl)cc1	Plasmodium yoelii	–	Kenya strain MRA-428, mice	oral, 100 mg/kg daily for 4 days, day 5	–	parasitaemia suppression	100%
CC(=O)[O-].O.[Cu+2].[O-]c1ccc(Br)cc1C=NCCN1CCOCC1	Shigella flexneri	–	–	20 µL of 100 µM per disc	–	inhibition zone diameter	22 mm
CC(=O)Oc1cc(C)c(OC(C)=O)c2c1CC=C(CCC=C(C)C)C2	Leishmania infantum	–	intracellular amastigotes, ex vivo mouse splenic explants	–	baseline: HepG2 CC50 over amastigote EC50	selectivity index	> 55
N=C(N)NCCC[C@@H]1NC(=O)[C@H](CCCNC(=N)N)NC(=O)[C@H](CCCNC(=N)N)NC(=O)[C@H](Cc2ccc3ccccc3c2)NC(=O)[C@H](Cc2c[nH]c3ccccc23)NC(=O)[C@H](Cc2ccc3ccccc3c2)NC(=O)[C@H](CCCNC(=N)N)NC1=O	Aspergillus fumigatus	XTT	Af-293	MIC	–	biofilm mass reduction	31 to 36%
COC1=CC(=O)c2cc3c(cc2C1=O)CCCC3(C)C	Leishmania infantum	–	intracellular amastigotes, ex vivo mouse splenic explants	–	baseline: HepG2 CC50 over amastigote EC50	selectivity index	2.1
Cc1ccc(N(CCc2nnc(S)o2)S(=O)(=O)c2ccc(C)cc2)cc1	Aspergillus niger	cup plate method	–	100 µg/mL	baseline: fluconazole	relative inhibition	78.8%
CCCn1c2ccc([N+](=O)[O-])cc2c(=O)n1Cc1ccccc1	Leishmania amazonensis	parasite growth, resazurin	–	72 h, promastigote	–	IC50	800 nM
CCCCCCN=Cc1[nH]c(-c2ccc[nH]2)cc1OC	Plasmodium yoelii	–	Kenya strain MRA-428, mice	oral, day 5, dosed 4 days	–	ED50	< 5 mg/kg/day
COc1ccc(-n2c(=O)c(C(=O)C3C(=O)CCCC3=O)nc3c(Cl)cccc32)cc1	Schoenoplectus juncoides	herbicidal activity, paddy pot test, visual rating	–	28 days	–	ED90	6.3 g a.i./10 a
Cc1nccc2c3ccccc3n(Cc3cccnc3)c12	Echinococcus granulosus sensu stricto	–	protoscoleces	200 µM, 48 h	–	killed protoscoleces	> 90%

A few entries again:
Compound	organism	test	test system	conditions	how to read	endpoint	value
CC(C)C[C@@H]1NC(=S)NC1=O	Trypanosoma cruzi trypomastigote	–	Y	–	baseline: LLC-MK2 CC50 over IC50	selectivity ratio	4.5
COc1ccc(-c2nc(-c3ccccc3OC)[nH]c2-c2ccc(OC)cc2)cc1	Schistosoma mansoni	–	adult male worms	25 µM	–	worm killing	0%
